Results from different studies.
Numbered parts are unrelated; each lists some results of a single study.
Chain of UniProt P00519 (whole entry, unmodified, looked up): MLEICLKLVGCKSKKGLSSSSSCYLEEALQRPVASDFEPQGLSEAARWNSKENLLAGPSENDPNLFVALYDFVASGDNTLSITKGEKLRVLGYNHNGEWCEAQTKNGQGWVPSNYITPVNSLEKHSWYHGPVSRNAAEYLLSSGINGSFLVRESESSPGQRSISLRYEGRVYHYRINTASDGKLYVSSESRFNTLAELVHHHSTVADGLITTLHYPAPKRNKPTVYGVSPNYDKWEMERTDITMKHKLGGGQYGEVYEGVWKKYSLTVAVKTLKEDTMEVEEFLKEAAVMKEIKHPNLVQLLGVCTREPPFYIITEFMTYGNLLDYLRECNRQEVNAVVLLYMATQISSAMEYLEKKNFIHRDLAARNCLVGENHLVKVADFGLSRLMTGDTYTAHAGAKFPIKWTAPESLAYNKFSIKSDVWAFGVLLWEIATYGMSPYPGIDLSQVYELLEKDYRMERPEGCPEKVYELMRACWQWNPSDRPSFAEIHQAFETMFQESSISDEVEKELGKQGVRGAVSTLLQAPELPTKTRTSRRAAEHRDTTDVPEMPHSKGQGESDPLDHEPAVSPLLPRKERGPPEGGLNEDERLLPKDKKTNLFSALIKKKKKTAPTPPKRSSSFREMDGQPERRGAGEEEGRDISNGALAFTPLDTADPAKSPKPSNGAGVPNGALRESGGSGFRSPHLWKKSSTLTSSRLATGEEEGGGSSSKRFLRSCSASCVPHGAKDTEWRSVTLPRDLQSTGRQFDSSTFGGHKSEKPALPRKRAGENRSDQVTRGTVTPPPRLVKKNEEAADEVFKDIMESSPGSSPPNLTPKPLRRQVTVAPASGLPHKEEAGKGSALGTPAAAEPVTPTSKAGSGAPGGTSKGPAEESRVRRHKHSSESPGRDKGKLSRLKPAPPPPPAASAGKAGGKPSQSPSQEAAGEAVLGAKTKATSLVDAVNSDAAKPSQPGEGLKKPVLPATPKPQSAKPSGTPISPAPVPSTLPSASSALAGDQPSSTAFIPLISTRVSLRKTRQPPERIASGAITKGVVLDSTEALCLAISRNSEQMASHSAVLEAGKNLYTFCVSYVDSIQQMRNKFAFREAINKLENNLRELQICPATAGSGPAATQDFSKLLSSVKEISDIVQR
Chain of UniProt Q14680 (whole entry, looked up): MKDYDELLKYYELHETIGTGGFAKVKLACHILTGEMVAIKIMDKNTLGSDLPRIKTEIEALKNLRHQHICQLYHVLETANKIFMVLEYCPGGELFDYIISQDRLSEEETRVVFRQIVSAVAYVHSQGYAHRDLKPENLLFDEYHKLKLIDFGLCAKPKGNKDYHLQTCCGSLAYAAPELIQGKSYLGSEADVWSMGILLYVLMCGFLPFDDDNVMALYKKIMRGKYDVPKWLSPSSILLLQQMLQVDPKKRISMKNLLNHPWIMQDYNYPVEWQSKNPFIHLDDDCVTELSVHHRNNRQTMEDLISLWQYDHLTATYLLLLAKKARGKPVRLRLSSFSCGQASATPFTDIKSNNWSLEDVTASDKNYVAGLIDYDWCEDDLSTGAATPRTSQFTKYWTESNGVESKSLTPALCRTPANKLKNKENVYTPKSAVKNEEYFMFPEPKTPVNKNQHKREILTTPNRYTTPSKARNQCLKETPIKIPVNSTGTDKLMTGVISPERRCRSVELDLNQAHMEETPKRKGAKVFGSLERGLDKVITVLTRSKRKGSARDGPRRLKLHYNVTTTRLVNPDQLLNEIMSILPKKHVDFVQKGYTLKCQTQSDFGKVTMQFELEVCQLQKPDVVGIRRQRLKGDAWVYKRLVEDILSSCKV
Chain of UniProt O75385 (whole entry, looked up): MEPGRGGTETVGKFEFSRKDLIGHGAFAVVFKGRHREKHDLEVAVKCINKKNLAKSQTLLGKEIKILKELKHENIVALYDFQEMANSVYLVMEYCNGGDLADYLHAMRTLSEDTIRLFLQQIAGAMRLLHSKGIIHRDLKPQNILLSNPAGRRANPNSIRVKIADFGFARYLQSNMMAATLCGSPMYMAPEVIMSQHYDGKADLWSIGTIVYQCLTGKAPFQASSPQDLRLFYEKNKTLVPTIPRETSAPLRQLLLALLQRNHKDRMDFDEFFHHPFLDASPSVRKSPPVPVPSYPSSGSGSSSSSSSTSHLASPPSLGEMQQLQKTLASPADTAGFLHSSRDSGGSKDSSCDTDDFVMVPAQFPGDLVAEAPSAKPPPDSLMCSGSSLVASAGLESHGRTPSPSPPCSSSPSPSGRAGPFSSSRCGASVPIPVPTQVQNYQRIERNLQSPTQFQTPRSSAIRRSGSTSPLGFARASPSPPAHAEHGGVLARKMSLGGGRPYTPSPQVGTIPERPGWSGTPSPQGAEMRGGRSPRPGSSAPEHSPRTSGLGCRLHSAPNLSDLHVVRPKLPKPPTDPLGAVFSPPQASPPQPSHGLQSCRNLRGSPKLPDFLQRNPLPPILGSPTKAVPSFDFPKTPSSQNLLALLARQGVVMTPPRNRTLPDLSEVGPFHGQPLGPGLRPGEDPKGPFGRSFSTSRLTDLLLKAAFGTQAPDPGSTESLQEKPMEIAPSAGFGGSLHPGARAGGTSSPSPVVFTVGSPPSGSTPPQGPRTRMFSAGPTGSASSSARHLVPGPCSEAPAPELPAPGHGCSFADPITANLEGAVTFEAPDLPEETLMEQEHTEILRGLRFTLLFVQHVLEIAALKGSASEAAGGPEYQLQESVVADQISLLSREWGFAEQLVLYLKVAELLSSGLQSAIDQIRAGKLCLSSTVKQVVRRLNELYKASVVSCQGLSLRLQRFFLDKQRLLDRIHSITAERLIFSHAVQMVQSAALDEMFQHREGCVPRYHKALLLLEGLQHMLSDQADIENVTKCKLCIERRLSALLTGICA
Chain of UniProt Q9Y2H1 (whole entry, looked up): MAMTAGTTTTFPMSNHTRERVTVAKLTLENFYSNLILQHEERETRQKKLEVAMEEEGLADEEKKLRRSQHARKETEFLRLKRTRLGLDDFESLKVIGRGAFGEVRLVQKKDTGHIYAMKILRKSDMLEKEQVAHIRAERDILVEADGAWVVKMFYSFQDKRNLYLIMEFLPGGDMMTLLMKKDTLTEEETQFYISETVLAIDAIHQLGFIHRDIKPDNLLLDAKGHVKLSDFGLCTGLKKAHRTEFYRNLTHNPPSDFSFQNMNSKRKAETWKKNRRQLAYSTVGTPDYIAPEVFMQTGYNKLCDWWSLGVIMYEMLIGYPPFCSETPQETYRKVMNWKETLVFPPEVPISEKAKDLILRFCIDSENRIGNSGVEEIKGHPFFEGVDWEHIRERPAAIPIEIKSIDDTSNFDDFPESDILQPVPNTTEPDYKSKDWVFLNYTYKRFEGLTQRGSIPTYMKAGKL
Chain of UniProt Q96NX5 (whole entry, looked up): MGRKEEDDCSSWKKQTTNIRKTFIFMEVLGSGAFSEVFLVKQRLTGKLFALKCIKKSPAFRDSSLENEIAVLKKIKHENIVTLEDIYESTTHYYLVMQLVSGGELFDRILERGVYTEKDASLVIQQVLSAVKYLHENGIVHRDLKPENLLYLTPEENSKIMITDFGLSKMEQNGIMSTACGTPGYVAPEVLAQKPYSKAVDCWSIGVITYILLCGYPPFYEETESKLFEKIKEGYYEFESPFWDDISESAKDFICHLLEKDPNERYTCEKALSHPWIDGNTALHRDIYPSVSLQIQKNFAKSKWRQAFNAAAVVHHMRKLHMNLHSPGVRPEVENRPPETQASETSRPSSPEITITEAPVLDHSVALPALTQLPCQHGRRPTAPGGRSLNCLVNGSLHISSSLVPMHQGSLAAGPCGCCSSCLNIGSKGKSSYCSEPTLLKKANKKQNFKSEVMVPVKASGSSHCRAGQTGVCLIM
Chain of UniProt Q15208 (whole entry, looked up): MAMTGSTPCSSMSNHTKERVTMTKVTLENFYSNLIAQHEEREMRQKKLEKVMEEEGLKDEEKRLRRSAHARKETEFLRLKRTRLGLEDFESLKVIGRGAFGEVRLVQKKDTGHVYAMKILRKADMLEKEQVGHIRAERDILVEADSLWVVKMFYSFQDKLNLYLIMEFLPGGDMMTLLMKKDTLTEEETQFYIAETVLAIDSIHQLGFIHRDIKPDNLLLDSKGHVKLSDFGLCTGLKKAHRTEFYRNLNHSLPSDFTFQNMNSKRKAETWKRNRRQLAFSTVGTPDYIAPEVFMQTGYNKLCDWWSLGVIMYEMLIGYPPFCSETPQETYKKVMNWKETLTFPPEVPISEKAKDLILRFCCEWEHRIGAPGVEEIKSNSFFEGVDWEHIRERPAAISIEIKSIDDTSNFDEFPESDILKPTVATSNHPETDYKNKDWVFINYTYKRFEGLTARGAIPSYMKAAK
Chain of UniProt Q6P2M8 (whole entry, looked up): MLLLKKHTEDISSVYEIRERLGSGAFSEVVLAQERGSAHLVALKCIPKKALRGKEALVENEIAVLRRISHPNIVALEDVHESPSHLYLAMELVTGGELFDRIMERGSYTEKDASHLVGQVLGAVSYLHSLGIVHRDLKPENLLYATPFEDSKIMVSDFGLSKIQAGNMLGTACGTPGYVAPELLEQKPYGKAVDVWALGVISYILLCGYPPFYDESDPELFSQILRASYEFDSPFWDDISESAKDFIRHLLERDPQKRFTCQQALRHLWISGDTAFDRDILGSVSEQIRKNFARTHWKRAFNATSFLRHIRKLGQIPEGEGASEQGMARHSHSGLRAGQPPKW
Chain of UniProt O14733 (whole entry, looked up): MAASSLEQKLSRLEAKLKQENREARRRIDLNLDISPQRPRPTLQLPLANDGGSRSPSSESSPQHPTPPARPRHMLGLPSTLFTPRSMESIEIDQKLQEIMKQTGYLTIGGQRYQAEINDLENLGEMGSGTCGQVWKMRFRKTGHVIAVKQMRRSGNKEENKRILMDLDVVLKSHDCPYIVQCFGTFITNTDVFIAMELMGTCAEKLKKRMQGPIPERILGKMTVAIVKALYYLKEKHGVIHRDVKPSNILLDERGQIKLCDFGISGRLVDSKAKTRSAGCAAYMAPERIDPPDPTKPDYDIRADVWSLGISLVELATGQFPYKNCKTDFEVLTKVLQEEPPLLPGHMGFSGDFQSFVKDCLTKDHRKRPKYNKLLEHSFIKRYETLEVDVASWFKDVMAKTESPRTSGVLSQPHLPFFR

Sample 1
Partner: ARF2 727-859 (Arabidopsis thaliana, UniProt Q94JM3)
Technique: two-hybrid
Baseline: out of 4 tests
Direction: higher = firmer interaction
B1: IAA33 (Arabidopsis thaliana, UniProt Q9FKM7); chain MNSFEPQSQDSLQRRFHQDNSTTQQPRDTTTPFIPKPASKNHNNSNSSSGAAGRSFQGFGLNVEDDLVSSVVPPVTVVLEGRSICQRISLDKHGSYQSLASALRQMFVDGADSTDDLDLSNAIPGHLIAYEDMENDLLLAGDLTWKDFVRVAKRIRILPVKGNTRQVKRNE
B2: IAA34 (Arabidopsis thaliana, UniProt Q9C5X0); chain MYCSDPPHPLHLVASDKQQKDHKLILSWKKPTMDSDPLGVFPNSPKYHPYYSQTTEFGGVIDLGLSLRTIQHEIYHSSGQRYCSNEGYRRKWGYVKVTMDGLVVGRKVCVLDHGSYSTLAHQLEDMFGMQSVSGLRLFQMESEFCLVYRDEEGLWRNAGDVPWNEFIESVERLRITRRNDAVLPF
B3: ARF1 538-665 (Arabidopsis thaliana, UniProt Q8L7G0); chain SRQIRSCTKVHMQGSAVGRAIDLTRSECYEDLFKKLEEMFDIKGELLESTKKWQVVYTDDEDDMMMVGDDPWNEFCGMVRKIFIYTPEEVKKLSPKNKLAVNARMQLKADAEENGNTEGRSSSMAGSR
Residues (chain): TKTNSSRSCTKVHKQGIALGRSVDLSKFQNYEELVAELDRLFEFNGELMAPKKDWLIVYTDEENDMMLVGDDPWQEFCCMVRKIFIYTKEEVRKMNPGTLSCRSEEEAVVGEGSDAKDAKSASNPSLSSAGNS
`B1 (IAA33)` gave a positive tests of 1.
`B2 (IAA34)` gave a positive tests of 3.
`B3 (ARF1 538-665)` gave a positive tests of 0.

Sample 2
Target: Fragile X messenger ribonucleoprotein 1, C-terminal low-complexity region (Fmr1, Mus musculus, UniProt P35922)
Technique: RNA Bind-n-Seq
Form: RNA
Medium: in vitro
Tested at: 200 nM
Setting: whole 134-nt RNA, ends assumed
With: 150 mM KCl
Baseline: input library
Direction: higher = stronger binding
With `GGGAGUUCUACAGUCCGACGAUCUUAGAUGAGUGACCGAGGAGGUGGCGUUCCUUUGAGGAAAAUUGACAGACUUUUCAACUACAUGUAUUCAACUGCACCAAGACCUCGUGUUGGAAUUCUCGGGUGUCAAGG` the log2 enrichment was -0.449.
`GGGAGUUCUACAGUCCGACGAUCCAAGUCCUGUGCUACACAUCGUAUGUACCGAAUCGGGGCCGGGCCGGGGCCGGGGAAAGUAUUAUGUUACGCCGUUCGGAUCUGCACUUCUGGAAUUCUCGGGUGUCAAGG` has a log2 enrichment of 0.139.
`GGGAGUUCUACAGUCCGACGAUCAGUCCUGUGCUACACAUCGUAUGUACCGAAUCGGGGUGGGGAGGGGAAAAAAAGGGGAAAGUAUUAUGUUACGCCGUUCGGAUCUGCACUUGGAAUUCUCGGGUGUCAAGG` has a log2 enrichment of 0.539.
`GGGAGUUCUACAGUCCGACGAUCUCCUGUGCUACACAUCGUAUGUACCGAAUCGGGGUUUUUUUGGGGUUUUUGGGGAGGGGAAAGUAUUAUGUUACGCCGUUCGGAUCUGCAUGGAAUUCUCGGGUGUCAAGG` gave a log2 enrichment of 0.694.
The log2 enrichment of `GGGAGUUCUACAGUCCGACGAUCUCAAGUCCUGUGCUACACAUCGUAUGUACCGAAUCGGUUUUUUUGGAGGAAAGGAAAGUAUUAUGUUACGCCGUUCGGAUCUGCACUUCCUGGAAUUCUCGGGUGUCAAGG` is reported as -0.438.
`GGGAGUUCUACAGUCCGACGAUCGCAGGAAGUAAAAACAAAUGGAAAUGCUUCGGAUAGUGGCAGGGGUGGGGGUUGCUAAGGAAAGGGAGGGAUGGGAGUGGGUAAAGAGUUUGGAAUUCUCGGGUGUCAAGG` has a log2 enrichment of 0.196.
The log2 enrichment of `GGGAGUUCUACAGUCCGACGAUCGUAGCUGCUCCAGUGGGCCCAGUGGGCCCCACUCCUACAGUUUUGCCCAUGGGAGCCCCUGUUCCCCGGCCUCGUGGUCCCCCACCGCCCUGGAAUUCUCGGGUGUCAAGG` is reported as -0.0497.
With `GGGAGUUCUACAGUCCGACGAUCACCAUGCAGGUGGGCAUCUUUGGGAAGUGGGGCAAGGGGGGGAUAGGGAGGGGGGAAACACUUUGGGAACAGGUGGUCCCAGGUCGUUUCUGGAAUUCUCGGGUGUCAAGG` the log2 enrichment was 1.02.

Sample 3
Target: Serine/threonine-protein kinase TAO1 (TAOK1, Homo sapiens, UniProt Q7L7X3)
Effect on: enzyme activity
Action: inhibitor
Tested at: 0.5 µM
Baseline: control
Target sequence (Q7L7X3 1-1001): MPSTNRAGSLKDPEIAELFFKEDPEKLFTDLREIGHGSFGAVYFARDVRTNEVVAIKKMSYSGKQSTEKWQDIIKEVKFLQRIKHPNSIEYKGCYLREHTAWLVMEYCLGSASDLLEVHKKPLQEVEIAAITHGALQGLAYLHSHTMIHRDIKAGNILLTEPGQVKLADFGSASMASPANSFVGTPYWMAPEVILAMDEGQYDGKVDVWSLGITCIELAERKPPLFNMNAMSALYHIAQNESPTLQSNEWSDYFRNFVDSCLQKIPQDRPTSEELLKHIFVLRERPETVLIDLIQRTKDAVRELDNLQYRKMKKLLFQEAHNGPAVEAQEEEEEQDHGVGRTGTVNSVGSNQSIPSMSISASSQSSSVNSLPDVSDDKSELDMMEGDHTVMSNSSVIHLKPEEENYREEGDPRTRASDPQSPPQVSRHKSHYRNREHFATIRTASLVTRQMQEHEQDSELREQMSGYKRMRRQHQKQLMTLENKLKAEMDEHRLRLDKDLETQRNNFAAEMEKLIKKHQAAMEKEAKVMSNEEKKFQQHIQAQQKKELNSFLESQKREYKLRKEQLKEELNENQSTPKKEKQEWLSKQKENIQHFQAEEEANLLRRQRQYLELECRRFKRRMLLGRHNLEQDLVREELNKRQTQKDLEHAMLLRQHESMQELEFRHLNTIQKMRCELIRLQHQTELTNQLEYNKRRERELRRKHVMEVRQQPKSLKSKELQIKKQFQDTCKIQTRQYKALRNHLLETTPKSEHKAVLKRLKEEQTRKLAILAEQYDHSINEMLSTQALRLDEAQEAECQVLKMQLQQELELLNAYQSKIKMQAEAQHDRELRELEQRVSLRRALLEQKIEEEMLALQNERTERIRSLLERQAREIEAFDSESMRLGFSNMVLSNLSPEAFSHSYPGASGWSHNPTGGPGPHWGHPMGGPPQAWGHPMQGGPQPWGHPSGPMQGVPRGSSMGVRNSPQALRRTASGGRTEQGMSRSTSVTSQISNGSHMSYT
With `OCC(O)CCON=C1C(c2c(O)[nH]c3ccccc23)=Nc2ccccc21` (centres unmarked) the remaining activity was 98.2%.
`Nc1ccc2ncnc(NCCc3ccc(Oc4ccccc4)cc3)c2c1` has a remaining activity of 84.2%.
With `COc1ccc(OC)c2c(=S)c3ccccc3[nH]c12` the remaining activity was 95.7%.
`O=C(O)c1ccc2c3c1cccc3c(=O)n1c3ccccc3nc21` gave a remaining activity of 93.3%.
`COc1cc2ncnc(Nc3ccc(Oc4ccccc4)cc3)c2cc1OC` gave a remaining activity of 105%.
`O=C(Nc1cccc(Nc2cc(Nc3cccc(C(F)(F)F)c3)ncn2)c1)C1CC1` gave a remaining activity of 100%.
With `Nc1ncnc2n[nH]c(Nc3ccc(F)cc3)c12` the remaining activity was 92%.
`COc1cc2nccc(Oc3ccc(NC(=S)NC(=O)c4ccccc4C)cc3)c2cc1OC` has a remaining activity of 71.3%.
With `C#Cc1cccc(Nc2ncnc3cc(OCCOC)c(OCCOC)cc23)c1` the remaining activity was 98.3%.
With `COc1ccc(C(=O)Nc2sc3c(c2C(N)=O)CCCC3)cc1OC` the remaining activity was 95.5%.
The remaining activity of `CN(C)c1ccc(C=C2C(=O)Nc3ccccc32)cc1` is reported as 94.7%.
`O=C(CCCc1ccc(-c2ccccc2F)cc1)Nc1ccc(O)cc1` gave a remaining activity of 91.4%.
The remaining activity of `COc1cc2ncnc(Nc3ccc(F)c(Cl)c3)c2cc1OCCCN1CCOCC1` is reported as 103%.
The remaining activity of `O=S(=O)(c1cccc2cnccc12)N1CCCNCC1` is reported as 123%.
`Cc1nc(-c2ccccc2)c(-c2ccncc2)o1` has a remaining activity of 98.5%.

Sample 4
Structure (SMILES): Cn1cc(Cl)c2c(Oc3c(F)cc(Nc4cc(Cl)nc(N)n4)cc3F)ccnc21
Tested at: 0.1 µM
It gave 83% for remaining binding (GRK3 (Homo sapiens, UniProt P35626); cell-free assay, competition with immobilised ligand).
For PRKACA (Homo sapiens, UniProt P17612); cell-free assay, competition with immobilised ligand: remaining binding read 90%.
For STK38 (Homo sapiens, UniProt Q15208); cell-free assay, competition with immobilised ligand: remaining binding read 87%.
It gave 93% for remaining binding (ULK1 (Homo sapiens, UniProt O75385); cell-free assay, competition with immobilised ligand).
MAP2K7 (Homo sapiens, UniProt O14733); cell-free assay, competition with immobilised ligand — remaining binding: 84%.
The remaining binding was 100% (FER (Homo sapiens, UniProt P16591); cell-free assay, competition with immobilised ligand).
The remaining binding was 100% (CAMK1G (Homo sapiens, UniProt Q96NX5); cell-free assay, competition with immobilised ligand).
It gave 89% for remaining binding (MELK (Homo sapiens, UniProt Q14680); cell-free assay, competition with immobilised ligand).
It gave 100% for remaining binding (STK38L (Homo sapiens, UniProt Q9Y2H1); binding, competition with immobilised ligand).
PNCK (Homo sapiens, UniProt Q6P2M8); cell-free assay, competition with immobilised ligand — remaining binding: 90%.
It gave 100% for remaining binding (SRPK3 (Homo sapiens, UniProt Q9UPE1); cell-free assay, competition with immobilised ligand).
For FLT4 (Homo sapiens, UniProt P35916); cell-free assay, competition with immobilised ligand: remaining binding read 96%.
It gave 94% for remaining binding (Tyrosine-protein kinase ABL1, non-phosphorylated (ABL1, Homo sapiens, UniProt P00519, F317L); cell-free assay, competition with immobilised ligand).
DMPK (Homo sapiens, UniProt Q09013); cell-free assay, competition with immobilised ligand — remaining binding: 86%.
For Tyrosine-protein kinase ABL1, phosphorylated (ABL1, Homo sapiens, UniProt P00519, F317I); binding: remaining binding read 89%.

Repeated from above (sample 4):
It gave 100% for remaining binding (SRPK3 (Homo sapiens, UniProt Q9UPE1); cell-free assay, competition with immobilised ligand).
The remaining binding was 100% (CAMK1G (Homo sapiens, UniProt Q96NX5); cell-free assay, competition with immobilised ligand).
For FLT4 (Homo sapiens, UniProt P35916); cell-free assay, competition with immobilised ligand: remaining binding read 96%.
MAP2K7 (Homo sapiens, UniProt O14733); cell-free assay, competition with immobilised ligand — remaining binding: 84%.
For PRKACA (Homo sapiens, UniProt P17612); cell-free assay, competition with immobilised ligand: remaining binding read 90%.
It gave 93% for remaining binding (ULK1 (Homo sapiens, UniProt O75385); cell-free assay, competition with immobilised ligand).
